Experimental data collected from several papers.
A part holds a random share of what one study measured.

Block 1
Target: RNA binding protein fox-1 homolog 2, RRM domain, GST-SBP tag (RBFOX2, Homo sapiens, UniProt O43251-10, residues 100-194)
Technique: RNA Bind-n-Seq
Form: RNA
Matrix: in vitro
Tested at: 365 nM
Notes: natural RNA segment, single round, ends assumed
Reference: no-protein control
Direction: higher = stronger binding
Residues (chain): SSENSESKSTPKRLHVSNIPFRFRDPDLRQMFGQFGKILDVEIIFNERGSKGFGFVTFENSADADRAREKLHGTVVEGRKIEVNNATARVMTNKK
| Sequence | RBNS enrichment (R) |
| --- | --- |
| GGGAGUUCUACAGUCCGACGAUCCAAAUCAAAGCUUCCUUCAAAUAGAUGGUCCCAUAGUCUGUAUCCAAAUAAUGAAUCUUCGGGUGUUUCCCUUUAGCUAAGCACAGAUCUACCUUGGUGAUUUGGACCCUUGGAAUUCUCGGGUGCCAA | 0.436 |
| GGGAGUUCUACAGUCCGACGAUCAGCAUGUGAUAAAGAAGCCAGCCUGCAGCAGACUUCACACUUUGAAGACUGUUCCACACCACAGAAAACCAACUUCAUUUUCUACUCAGAAUUUAUACCAAGAGACUCUUUGGAAUUCUCGGGUGCCAA | 10.5 |
| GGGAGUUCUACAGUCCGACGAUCCUGUUUAACUUGGCCAAUCUAGGCCAUCAACCUAGAUAACUUAGUCCUUUUCAUGUAAAUUUUUGUGCAAGCACAAUCUACUUUAACUGCCUUGCCUGACCAAAUUAAAUUGGAAUUCUCGGGUGCCAA | 0.348 |
| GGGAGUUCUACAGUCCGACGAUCCUUCCAGGCACUGGCCUGAUGCCCCGCCCUGGUGCUCUCCCCAGGCUCCCUCCUCAGCCUCCUGCCCACCCAGGGCCCUUUACUCUCUUCUCCCUCCAGACCUUCCUCUGUGGAAUUCUCGGGUGCCAA | 1 |
| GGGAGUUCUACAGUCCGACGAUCUCUGUAUAUUGGCAUCAGGUGGCAGCUGAAUAUCUUUUGAAUUACUCGAAGGUAAAGCCAGAUGCCAGAAUGAAGGUGUAGCCAGUGUUUCCCAUAUGCCCCUGGAGCCCUGGAAUUCUCGGGUGCCAA | 0.36 |
| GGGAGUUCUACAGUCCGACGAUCUACCUAAACUCAUGAUGUCUGUGGUGCUGUAAAAUUUAUACUAAAAUGUGGACUAUUUUGAAAUUAUAACCAUUUUUGAUGCCCUGAAUCUUGAGGUGACUUAUUUUGCAUGGAAUUCUCGGGUGCCAA | 5.19 |
| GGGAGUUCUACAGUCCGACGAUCUGGACUUGCUUCUGAACACGAAUUCUUCGAGAACUAGGCUCAGAUGCUCUGCUGGAGUGUUGGCCUCACCCCAGUCCCCUUGCCAGCAACAUCACUGCCCUUGGACGAGAUGGAAUUCUCGGGUGCCAA | 0.29 |
| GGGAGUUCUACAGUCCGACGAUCCAUCUCAAACCAUAUUCUGUGAAUCCAUCUCAUGGUCCACUCCUGGGCUGCGGAAGGUACAAGGCGAGGUUAUGGGGCUGCUCUUCACUUUUUGUUUUUAAAUGAAGACCUGGAAUUCUCGGGUGCCAA | 0.332 |

Block 2
Target: Ras GTPase-activating protein-binding protein 1, C-terminal RGG region (G3BP1, Homo sapiens, UniProt Q13283)
Chain of UniProt Q13283 (whole entry, looked up): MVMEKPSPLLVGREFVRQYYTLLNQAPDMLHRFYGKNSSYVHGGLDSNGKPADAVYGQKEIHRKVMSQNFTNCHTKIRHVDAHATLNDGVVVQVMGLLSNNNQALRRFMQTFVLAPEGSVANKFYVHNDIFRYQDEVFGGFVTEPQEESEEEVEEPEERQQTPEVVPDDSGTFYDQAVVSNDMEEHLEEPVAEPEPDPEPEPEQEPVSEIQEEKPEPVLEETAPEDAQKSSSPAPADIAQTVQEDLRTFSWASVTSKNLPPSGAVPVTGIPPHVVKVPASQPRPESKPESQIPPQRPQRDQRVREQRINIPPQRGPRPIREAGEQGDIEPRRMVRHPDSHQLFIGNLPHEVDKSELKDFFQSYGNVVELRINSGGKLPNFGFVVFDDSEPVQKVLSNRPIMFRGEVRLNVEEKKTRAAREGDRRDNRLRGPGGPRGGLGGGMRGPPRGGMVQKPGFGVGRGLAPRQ
Technique: RNA Bind-n-Seq
Form: RNA
Matrix: in vitro
Tested at: 1 µM
Notes: whole 134-nt RNA, ends assumed
Added: 150 mM KCl
Reference: input library
Direction: higher = stronger binding
| Sequence | log2 enrichment |
| --- | --- |
| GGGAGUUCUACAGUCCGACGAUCGUCCUGUGCUACACAUCGUAUGUACCGAAUCGGGUUUUUUUGGGUUUUUGGGUUUGGGAAAGUAUUAUGUUACGCCGUUCGGAUCUGCACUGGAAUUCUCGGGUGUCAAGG | -0.223 |
| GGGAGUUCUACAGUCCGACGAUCCAAGUCCUGUGCUACACAUCGUAUGUACCGAAUCGGGGUUUGGGUUUGGGUUUGGGAAAGUAUUAUGUUACGCCGUUCGGAUCUGCACUUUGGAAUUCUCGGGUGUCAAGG | 2.36 |
| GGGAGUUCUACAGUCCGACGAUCACCAUGCAGGUGGGCAUCUUUGGGAAGUGGGGCAAGGGGGGGAUAGGGAGGGGGGUAACACUUUGGGAACAGGUGGUCCCAGGUGGUUUCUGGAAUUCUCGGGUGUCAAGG | 1.83 |
| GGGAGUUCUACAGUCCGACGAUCUCAAGUCCUGUGCUACACAUCGUAUGUACCGAAUCGGAAAGGAAAAAAAGGAGGAAAGUAUUAUGUUACGCCGUUCGGAUCUGCACUUCCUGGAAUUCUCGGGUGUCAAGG | -1.42 |
| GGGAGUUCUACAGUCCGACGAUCUGGAUAUGGUUAUAGAAGAAGUGGCCGAGAUAAAUAUGGCCCUCCUACUCGCACAGAGUACAGACUUAUUGUGGAGAAUUUGUCAAGUCGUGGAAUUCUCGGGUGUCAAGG | -1.38 |
| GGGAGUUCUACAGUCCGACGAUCUGGUUCUGGCAUUUAUGACCCUUGUGAAAAAGAAGCCACUGAUGCUAUUGGGCAUCUAGACAGACAGCAACGGGAAGAUAUCACACAGAGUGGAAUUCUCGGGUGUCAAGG | -1.41 |
| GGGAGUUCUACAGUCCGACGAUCACCAUGCAGGUGGGCAUCUUUGGGAAGUGGGGCAAGGGGGGGAUAGGGAGGGGGGUAACACUUUGGGAACAGGUGGUCAAAGGUCGUUUCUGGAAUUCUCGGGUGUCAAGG | -0.844 |
| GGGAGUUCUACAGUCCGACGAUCUUGAAAGAAUUUGCCAACUUUGACUUUGAUGUCUGGAGGAAAAAGUAUAUGCGUUGGAUGAAUCACAAAAAGUCUCGAGUGAUGGAUUUCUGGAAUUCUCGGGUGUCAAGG | -1.93 |
| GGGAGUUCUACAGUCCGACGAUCGUCCUGUGCUACACAUCGUAUGUACCGAAUCGGGAAAAAAAGGGAAAGGGUUUUUGGGAAAGUAUUAUGUUACGCCGUUCGGAUCUGCACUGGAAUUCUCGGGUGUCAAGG | -0.127 |

Block 3
Target: Sal-like protein 4, full length isoform B (SALL4, Homo sapiens, UniProt Q9UJQ4-2, residues 1-616)
Technique: universal PBM
Form: double-stranded DNA, one strand shown
Matrix: in vitro
Tested at: not given
Notes: 8-mer, flanks averaged, mean of replicates
Direction: higher = stronger binding
Residues (chain): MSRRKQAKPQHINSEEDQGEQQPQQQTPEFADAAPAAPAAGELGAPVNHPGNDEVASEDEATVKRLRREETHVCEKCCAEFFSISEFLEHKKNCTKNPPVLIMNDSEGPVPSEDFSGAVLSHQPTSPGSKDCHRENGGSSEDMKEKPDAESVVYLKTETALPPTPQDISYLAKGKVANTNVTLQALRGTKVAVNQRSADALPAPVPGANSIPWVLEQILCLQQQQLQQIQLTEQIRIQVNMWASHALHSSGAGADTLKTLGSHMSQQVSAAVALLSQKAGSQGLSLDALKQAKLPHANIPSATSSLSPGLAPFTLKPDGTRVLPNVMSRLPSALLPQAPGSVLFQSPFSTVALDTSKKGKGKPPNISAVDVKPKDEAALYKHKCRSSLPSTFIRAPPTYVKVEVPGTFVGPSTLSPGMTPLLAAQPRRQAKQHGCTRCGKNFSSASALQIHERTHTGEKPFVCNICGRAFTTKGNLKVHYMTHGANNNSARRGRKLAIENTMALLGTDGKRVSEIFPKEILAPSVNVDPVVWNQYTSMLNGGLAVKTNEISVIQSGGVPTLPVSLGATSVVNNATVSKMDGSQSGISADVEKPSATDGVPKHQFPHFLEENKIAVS
| Sequence | E-score |
| --- | --- |
| TCCCGGAA | -0.178 |
| AGGGAGAT | -0.123 |
| TAGGGCCA | -0.0914 |
| CTCTAAGA | -0.0658 |
| GCCGGAAA | -0.148 |
| ATCGCGCC | -0.15 |
| AAGGAGCG | -0.177 |
| AGTATTAG | 0.181 |
| AACACGCC | -0.232 |
| AGGGCCAA | -0.147 |
| ATATGTCA | 0.295 |
| TAAGGGCA | -0.0327 |
| ATTGCTGG | 0.0565 |
| ATGTGGTG | -0.0138 |
| AATCGCGA | 0.0243 |
| GGAAGTGA | -0.0779 |
| AGGAATCA | 0.161 |
| GAGATGCC | -0.168 |

Block 4
Target: RING finger protein unkempt homolog, zinc fingers 1-6, GST-SBP tag (UNK, Homo sapiens, UniProt Q9C0B0, residues 30-357)
Chain of UniProt Q9C0B0 (30-357, looked up): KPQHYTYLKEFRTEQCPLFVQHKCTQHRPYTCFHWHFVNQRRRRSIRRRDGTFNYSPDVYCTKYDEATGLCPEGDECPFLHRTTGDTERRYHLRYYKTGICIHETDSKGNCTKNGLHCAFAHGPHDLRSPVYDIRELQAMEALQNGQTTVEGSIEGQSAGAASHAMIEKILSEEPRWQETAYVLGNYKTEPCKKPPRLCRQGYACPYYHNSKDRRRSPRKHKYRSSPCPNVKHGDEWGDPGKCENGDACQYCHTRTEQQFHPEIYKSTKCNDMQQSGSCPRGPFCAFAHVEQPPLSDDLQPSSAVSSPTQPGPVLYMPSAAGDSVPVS
Technique: RNA Bind-n-Seq
Form: RNA
Matrix: in vitro
Tested at: not given
Notes: RNA with constant flanks, human and mouse sites, ends assumed
Reference: input RNA pool
Direction: higher = stronger binding
| Sequence | bound/input enrichment [ratio] |
| --- | --- |
| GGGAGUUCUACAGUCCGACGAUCUAAAUUGUUGGAGUUCUUUUAAGAAGAAUAUAAAUUGAUUAUUUUUUUUAUUUAAAGGGAUAGUUGAUUCCUGGGGUGUUUUGAAAUUAAGUUGGAAUUAAGUUGCUUAAGCAUAUUUAUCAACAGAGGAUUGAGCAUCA | 0.452 |
| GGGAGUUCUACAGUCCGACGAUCCUCUCCAGUUCCAAGGACUCGUAUACAGCUCCCAUUUAUAAUUUUGCCCUUAUUUUUAAGUUAGGAAAUAAUGAUUAACUUAUGAAUAAAUAGUAUGGGGCAAGAGUGGGAUUUCUUCCGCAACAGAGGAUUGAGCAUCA | 0.277 |
| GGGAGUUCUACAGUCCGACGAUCAUCAAGGGUAAAAUUCCAUUCUGAUAUCAAAAUGCAGUAUUCGCACCACUGUGAGCACCUUUUAGAGAGACUGAACAAACAGCGGGAAGCAGGUUUUCUCUGUGACUGUACCAUAGUGAUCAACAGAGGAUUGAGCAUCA | 0.566 |
| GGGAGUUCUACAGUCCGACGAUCCCCCCAACUGUUCACCUUUAGAAAUGUCCAGACAAGGAGCCUGGUCUGCUUAUAUCAUGGUUAGGGAUGAUAGUCCGGACUAGCCAGGGUCAAAGUUGCUUUUAAUGUAGAGCCCAACCCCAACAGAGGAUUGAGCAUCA | 1.28 |
| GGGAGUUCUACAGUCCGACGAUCGUCAUCUCCAACAAAGCCGCCGUAGCCGGCUUAGACCGAGCUGAGCGAGCUGGUAUUCCCACCAGGGUAAUUAAUCACAAAUUAUAUAAAAAUCGUGUUGAGUUUGACAAUGCAGUUGACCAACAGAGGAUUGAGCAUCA | 0.42 |
| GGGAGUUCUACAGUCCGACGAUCAGCUCUGAUACCUACUUUAAAUAGAGUUACAUUUAACCUUAAAGCUUUGGAGGAAUGAGCCAUCUCUUACUAGUCAUUAAAAAAAAUAUAUUUAAGAGCUACUACUUGUGAGGGGCUGCCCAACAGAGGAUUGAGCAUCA | 3.36 |
| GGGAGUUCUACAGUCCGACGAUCAGUUCCAGCGACAGCGACUCAUCUUGUGGCUGGACUGUCAUCAAUCAUGAGGGUUCUGAUAUAGAGAUCGUGAAUUCUGCCACAGCCAGUGACAACUGUGGACUGACUCUAGAAUGUUCCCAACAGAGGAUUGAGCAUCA | 0.142 |
| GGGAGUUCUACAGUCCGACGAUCCCCAGCCCAGCCCAGUCCGCCCGCCCGCCCGCCGGCCCGCCGGCCGCGAGCGCCGCCGCCGCCGCCGCCGCCACCUCCCCCGCCGCUGGGGACAUGUCUAACCCCGGAGGCCGGAGGAACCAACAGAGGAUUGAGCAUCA | 1.32 |
